{"data": "Results from different studies", "note": "Each numbered part is a random draw from the data of one study; scales do not carry over between parts. Changes are numbered by the printed parent chain.", "chain of UniProt Q9BUB5 (whole entry, looked up)": "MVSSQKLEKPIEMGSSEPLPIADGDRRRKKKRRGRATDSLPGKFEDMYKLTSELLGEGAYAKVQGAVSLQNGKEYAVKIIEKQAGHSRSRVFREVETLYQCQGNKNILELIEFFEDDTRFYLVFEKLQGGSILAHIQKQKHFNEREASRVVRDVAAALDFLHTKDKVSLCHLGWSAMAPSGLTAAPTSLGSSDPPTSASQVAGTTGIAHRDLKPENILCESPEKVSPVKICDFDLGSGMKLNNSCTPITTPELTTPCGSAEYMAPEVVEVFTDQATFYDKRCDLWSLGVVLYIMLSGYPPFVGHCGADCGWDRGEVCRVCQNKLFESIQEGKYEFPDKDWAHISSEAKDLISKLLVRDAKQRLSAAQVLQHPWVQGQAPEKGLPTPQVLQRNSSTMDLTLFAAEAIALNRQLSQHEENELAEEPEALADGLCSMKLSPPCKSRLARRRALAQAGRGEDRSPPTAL"}
{"data": "Block 1", "target": "Sox, HMG box (Pigoraptor chileana)", "technique": "Spec-seq", "molecule type": "double-stranded DNA, one strand shown", "medium": "in vitro", "concentration": "not given", "notes": "whole probe, mean of replicates", "baseline": "not given", "direction": "lower = stronger binding", "shared flanks, not repeated": "GAGTCGTCTCGTCAGCAC … CCGTAGAGCACTCAGGTC", "Construct (chain)": "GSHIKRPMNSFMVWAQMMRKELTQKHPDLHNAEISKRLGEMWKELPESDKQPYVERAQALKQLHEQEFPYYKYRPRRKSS"}
{"Sequence": "CATGATA", "relative binding energy [ln ratio]": 0.348}
{"Sequence": "CATTAAA", "relative binding energy [ln ratio]": -0.203}
{"Sequence": "TCTCGTT", "relative binding energy [ln ratio]": 1.06}
{"Sequence": "GGCGGTT", "relative binding energy [ln ratio]": 0.832}
{"Sequence": "CATGCTC", "relative binding energy [ln ratio]": 0.596}
{"Sequence": "CATGTCG", "relative binding energy [ln ratio]": 0.796}
{"Sequence": "CTCAGTT", "relative binding energy [ln ratio]": 0.191}
{"Sequence": "CATTAGA", "relative binding energy [ln ratio]": 0.153}
{"data": "Block 2", "target": "NFE2L3, bZIP domain (human)", "technique": "DHFR protein complementation", "medium": "yeast", "notes": "single substitutions, most at no-binding floor", "baseline": "wild-type JUN-FOS pair", "direction": "higher = stronger binding", "parent": "JUN, bZIP domain (human); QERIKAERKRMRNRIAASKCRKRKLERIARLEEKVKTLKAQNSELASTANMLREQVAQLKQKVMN; partner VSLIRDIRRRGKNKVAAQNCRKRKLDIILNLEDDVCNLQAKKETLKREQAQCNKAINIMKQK"}
{"Change": "A46F", "binding fitness [natural log]": -1.47}
{"Change": "N42W", "binding fitness [natural log]": -1.45}
{"Change": "E33W", "binding fitness [natural log]": -1.48}
{"Change": "A57V", "binding fitness [natural log]": -1.53}
{"Change": "Q41T", "binding fitness [natural log]": -1.26}
{"Change": "E54Y", "binding fitness [natural log]": -1.56}
{"Change": "S43L", "binding fitness [natural log]": -1.53}
{"Change": "M51L", "binding fitness [natural log]": -1.55}
{"data": "Block 3", "target": "CRIPT, C-terminal peptide", "technique": "DHFR complementation, deep sequencing", "medium": "yeast", "notes": "single substitutions, model-inferred values", "baseline": "wild type", "direction": "higher = weaker binding", "parent": "ERBIN, PDZ domain 1 (human); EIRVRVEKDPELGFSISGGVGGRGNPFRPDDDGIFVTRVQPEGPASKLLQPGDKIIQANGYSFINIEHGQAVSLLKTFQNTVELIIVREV; partner TKNYKQTSV"}
{"Change": "V20F", "binding free energy change [kcal/mol]": -0.0973}
{"Change": "R38D", "binding free energy change [kcal/mol]": 0.306}
{"Change": "P44E", "binding free energy change [kcal/mol]": 0.687}
{"Change": "I86T", "binding free energy change [kcal/mol]": 0.294}
{"Change": "Q40S", "binding free energy change [kcal/mol]": 0.25}
{"Change": "K47F", "binding free energy change [kcal/mol]": 0.19}
{"Change": "R88I", "binding free energy change [kcal/mol]": 0.996}
{"Change": "V82L", "binding free energy change [kcal/mol]": 1.6}
{"data": "Mixed results"}
{"SMILES": "CC(C)(C)c1nc2c3cc[nH]c(=O)c3c3cc(F)ccc3c2[nH]1", "target": "MAP kinase-interacting serine/threonine-protein kinase 1 (MKNK1, Homo sapiens, UniProt Q9BUB5)", "assay": "enzyme activity, inhibitor", "setting": "0.5 µM", "how to read": "baseline: control", "endpoint": "remaining activity", "value": "101%"}
{"note": "A few entries again (block 1):"}
{"Sequence": "CATGATA", "relative binding energy [ln ratio]": 0.348}
{"Sequence": "CATTAAA", "relative binding energy [ln ratio]": -0.203}
